Measured values gathered from unrelated publications.
± gives the spread as reported.
Organism: Staphylococcus aureus

| Compound | assay | test system | setting | inhibition zone |
| --- | --- | --- | --- | --- |
| C=C(CO)C(=O)O[C@H]1CC(=C)[C@@H]2C[C@H](O)[C@](O)(CCl)[C@@H]2[C@H]2OC(=O)C(=C)C12 (stereo partly drawn) |  |  | concentration not given | 12 ± 0.33 mm |
| Cc1cccc(NCC(=O)Nc2nc3ccccc3s2)c1 | microbial growth, disc diffusion |  | 100 µg/mL, 24 h | 0 mm |
| COc1cc(OC)c2c(c1)C(=O)c1cc3oc(=O)cc(-c4ccc(Cl)cc4)c3c(O)c1C2=O | microbial growth, disc diffusion | MTCC96 | 100 µg/disc | 10 mm |
| COc1ccc(NC(=O)C2C(=O)C(c3ccccc3)c3ccc4c(c32)C(=O)c2ccccc2C4=O)cc1 (stereo not drawn) | microbial growth, disc diffusion | MTCC96 | 100 µg/mL, 24 h | 8 mm |
| CCc1ccc(NC(=O)CSc2nc3ccccc3c(=O)n2-c2ccc(S(N)(=O)=O)cc2)cc1 | microbial growth, well diffusion | MRSA | 500 µg/mL, 24 h | 22 mm |
| Cc1cc(O)cc2c1C(=O)c1c(cc3oc(=O)cc(-c4ccc(Cl)cc4)c3c1O)C2=O | microbial growth, disc diffusion | MTCC96 | 100 µg/disc | 16 mm |
| O=C1c2ccccc2C(=O)c2c1ccc1c2C(C(=O)NCc2ccccc2)C(=O)C1c1ccccc1 (stereo not drawn) | microbial growth, disc diffusion | MTCC96 | 100 µg/mL, 24 h | 11 mm |
| Cc1cc([N+](=O)[O-])ccc1NC(=O)CSc1nc2ccccc2c(=O)n1-c1ccc(S(N)(=O)=O)cc1 | microbial growth, well diffusion | MRSA | 500 µg/mL, 24 h | 29 mm |
| Cc1ccc(NC(=O)C2C(=O)C(c3ccccc3)c3ccc4c(c32)C(=O)c2ccccc2C4=O)cc1 (stereo not drawn) | microbial growth, disc diffusion | MTCC96 | 100 µg/mL, 24 h | 10 mm |
| Cc1cc(O)cc2c1C(=O)c1c(cc3oc(=O)cc(C)c3c1O)C2=O | microbial growth, disc diffusion | MTCC96 | 100 µg/disc | 8 mm |
| CCOc1ccc(NC(=O)CSc2nc3ccccc3c(=O)n2-c2ccc(S(N)(=O)=O)cc2)cc1 | microbial growth, well diffusion | ATCC29213 | 500 µg/mL, 24 h | 33 mm |
| O=C1c2ccccc2C(=O)c2c1ccc1c2C(C(=O)Nc2ccc(Br)cc2)C(=O)C1c1ccccc1 (stereo not drawn) | microbial growth, disc diffusion | MTCC96 | 100 µg/mL, 24 h | 8 mm |

For quick reference, copied from above:
| Compound | assay | test system | setting | inhibition zone |
| --- | --- | --- | --- | --- |
| CCc1ccc(NC(=O)CSc2nc3ccccc3c(=O)n2-c2ccc(S(N)(=O)=O)cc2)cc1 | microbial growth, well diffusion | MRSA | 500 µg/mL, 24 h | 22 mm |
| Cc1cc(O)cc2c1C(=O)c1c(cc3oc(=O)cc(-c4ccc(Cl)cc4)c3c1O)C2=O | microbial growth, disc diffusion | MTCC96 | 100 µg/disc | 16 mm |
